Published values from different studies.
Each numbered part is a random draw from the data of one study; scales do not carry over between parts.

Set 1
Target: Sal-like protein 4, full length isoform B (SALL4, Homo sapiens, UniProt Q9UJQ4-2, residues 1-616)
Method: universal PBM
Form: double-stranded DNA, one strand shown
Sample: in vitro
Concentration: not given
Setting: 8-mer, flanks averaged, mean of replicates
Reading: higher = stronger binding
Residues (chain): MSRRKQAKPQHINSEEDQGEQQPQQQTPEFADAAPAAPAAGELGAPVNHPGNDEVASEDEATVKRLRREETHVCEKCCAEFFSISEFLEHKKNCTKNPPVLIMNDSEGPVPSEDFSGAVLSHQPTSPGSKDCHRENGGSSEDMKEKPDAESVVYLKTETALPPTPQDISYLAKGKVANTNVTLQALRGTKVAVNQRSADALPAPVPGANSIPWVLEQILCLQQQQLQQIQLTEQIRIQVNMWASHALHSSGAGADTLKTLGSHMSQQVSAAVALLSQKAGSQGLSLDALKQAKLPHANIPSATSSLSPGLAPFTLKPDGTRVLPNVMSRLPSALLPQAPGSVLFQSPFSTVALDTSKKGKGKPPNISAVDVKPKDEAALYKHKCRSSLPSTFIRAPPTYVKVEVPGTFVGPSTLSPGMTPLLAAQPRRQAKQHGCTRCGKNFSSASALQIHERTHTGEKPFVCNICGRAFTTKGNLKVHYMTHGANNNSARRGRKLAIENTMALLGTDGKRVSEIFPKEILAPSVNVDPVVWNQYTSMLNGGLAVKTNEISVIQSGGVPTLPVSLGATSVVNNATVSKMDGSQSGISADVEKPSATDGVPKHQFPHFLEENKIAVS
| Sequence | E-score |
| --- | --- |
| AATTTGCC | 0.122 |
| TTAACTAA | 0.265 |
| GCGGCGCA | -0.137 |
| CTGTTAGC | -0.162 |
| CACACCTG | -0.172 |
| CAGAATGC | -0.0858 |
| GAGAGACA | -0.0737 |
| CCAAGACG | -0.183 |
| ACGACCTA | -0.0245 |
| CCCCACGG | -0.312 |
| CGAAGTCG | -0.0882 |
| ACCGGGAA | -0.0849 |
| ATTCTTCG | 0.117 |
| CCCCGCGC | -0.318 |
| CAGCTCGG | -0.298 |
| AGGACTCC | -0.218 |
| AAGAGAGA | 0.0207 |
| CTGCGTTC | -0.093 |
| GCGACTAA | 0.0623 |
| ATAAGGCA | 0.168 |
| CCGATGAC | -0.0561 |
| GCGCCAGC | -0.24 |
| CCTAAGAC | -0.194 |
| CGCGTCAA | -0.125 |
| ATCCGCGA | -0.114 |

Set 2
Target: RING finger protein unkempt homolog, zinc fingers 1-6, GST-SBP tag (UNK, Homo sapiens, UniProt Q9C0B0, residues 30-357)
UniProt Q9C0B0, sequence (30-357, looked up): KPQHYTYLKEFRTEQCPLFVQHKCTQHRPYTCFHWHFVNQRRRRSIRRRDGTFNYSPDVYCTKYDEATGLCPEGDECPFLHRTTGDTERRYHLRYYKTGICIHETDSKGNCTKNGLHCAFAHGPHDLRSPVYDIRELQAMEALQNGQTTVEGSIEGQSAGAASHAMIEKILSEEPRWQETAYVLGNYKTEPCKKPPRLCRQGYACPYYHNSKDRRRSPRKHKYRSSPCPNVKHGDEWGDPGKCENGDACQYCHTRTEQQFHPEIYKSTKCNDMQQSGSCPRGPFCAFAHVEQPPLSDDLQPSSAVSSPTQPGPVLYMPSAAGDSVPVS
Method: RNA Bind-n-Seq
Form: RNA
Sample: in vitro
Concentration: not given
Setting: RNA with constant flanks, human and mouse sites, ends assumed
Relative to: input RNA pool
Reading: higher = stronger binding
Constant ends, left off below: GGGAGUUCUACAGUCCGACGAUC … CAACAGAGGAUUGAGCAUCA
| Sequence | bound/input enrichment [ratio] |
| --- | --- |
| AAAGGCAAAAUAACAGCAGGGAAACACAGACGACUGACUCGAAAAAGUAGCACAAGCAUUGAUGAAGAUGCAGGAAGACGUCACUCAUGGCAUGAUGAAGACGAUGAAGCAUUUGAUGAA | 0.744 |
| UAAAGUGUAUUCUGUACAUAAUUUACAAAUAAAACAUUUUAUUUUAAUUGUUACUUAUUAUUUAGAUAUUUCUCAACACUUAAAUUCAUAAAAUUAAGACCAUGUAAGGGUAUGUUUUUA | 1.27 |
| GUCUUCACGUGCUUCCGUUGUGCAGCUGCCUGGUGUCGGCCGGAGCAGGGCGCAGUGAUAGCUUUUCAUCAUGAAUCGGAAGAAGGUGGAUAACCGAAUUCGAAUUCUCAUUGAGAAUGG | 0.145 |
| UCAACAUCAGUACCCCGAUCAGUACCCCCUGCACCGCCCCCACCUCCACCGCCCACCUCGCUUUCCCAGCCACCCCCGCUGCUGAGGCCACCUCUGCCCACAGCUCCCACAUUGCUCCGC | 1.32 |
| UUCCCCCUCCCAGUACUAGUUAAUUUUGAGUAAUUGUAUUGUCAGAAAAGUGAUUAGUACUAUUUUUUUUUGUUGUUUCAAAAAAAAAAUUUUUGUGUGUGUGUGUUUUUUUUUUUUUUU | 1.28 |
| GCGGAGAAAAAAAAUUACUUAUUUUCUUGCCCCAUACAUACCUUGAGGCGAGCAAAAAAAUUAAAUUUUAACCAUGAGGGAAAUCGUGCACAUCCAGGCUGGUCAGUGUGGCAACCAGAU | 0.303 |
| GGAAAGUAUGUGUAUGUAGUAACAGAACUUAUGAAAGGAGGUGAAUUGCUGGAUAAAAUUCUUAGACAAAAAUUUUUCUCUGAACGAGAGGCCAGUGCUGUCCUGUUCACUAUAACUAAA | 0.636 |
| UGAUUAUUUCAGCCAAGGAACUGAGCAAGCAGGGGCACCGGAGGAGGGCUAUCCCUGCAUCUGCUAAGGCAAGAAUAAUGCCUCUACAUCUGCAAGUCUGAACAAGCAUGGGAUUUGAAU | 0.242 |

Set 3
Target: Histone acetyltransferase KAT6A, winged helix 1, GST fusion (KAT6A, Homo sapiens, UniProt Q92794, residues 1-85)
Method: protein binding microarray
Form: double-stranded DNA, one strand shown
Sample: in vitro
Concentration: not given
Setting: 8-mer, flanks averaged, mean of 2 arrays, mostly near background
Relative to: not given
Reading: higher = stronger binding
Target sequence (chain): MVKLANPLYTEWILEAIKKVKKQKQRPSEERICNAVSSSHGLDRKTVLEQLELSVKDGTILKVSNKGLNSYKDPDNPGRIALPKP
| Sequence | E-score |
| --- | --- |
| GTTAGCCA | -0.00835 |
| GGAGACAA | -0.141 |
| CCCCGGGA | 0.309 |
| CTATGCGA | 0.1 |
| AGCCTCAG | 0.00307 |
| CGAAGCTA | -0.121 |
| AGAAGGAC | -0.231 |
| TATTCCAA | -0.272 |
| GAGGTACA | -0.152 |
| ACTATCGG | 0.212 |
| GATAATTA | -0.072 |
| CTTTAAGC | -0.00966 |
| ATTGAAGG | -0.123 |
| AGCGGTAC | 0.341 |
| CAGGCATC | -0.236 |
| GCGGAGCC | 0.284 |
| ACCCGTAT | 0.31 |
| GTCGGTAA | 0.225 |
| GACGGAAC | 0.237 |
| AGAGGGGC | -0.24 |

Set 4
Target: Prothrombin, mature alpha-thrombin (F2, Homo sapiens, UniProt P00734)
Method: aptamer microarray, sandwich
Form: DNA with 2'F-ANA
Sample: in vitro
Concentration: 200 nM
Setting: whole 15-mer aptamer, many near background
With: Cy3 exosite-II aptamer, 400 nM
Reading: higher = stronger binding
Sequence: GGTTGGTGTGGTTGG
| Modification | mean fluorescence intensity [a.u.] |
| --- | --- |
| 2'F-ANA at 2 4 5 6 7 9 11 13 14 15 | 52.8 |
| 2'F-ANA at 2 3 5 10 12 | 61.3 |
| 2'F-ANA at 2 8 10 11 | 125 |
| 2'F-ANA at 4 5 6 9 11 13 14 | 51.2 |
| 2'F-ANA at 1 2 3 4 5 6 9 10 11 13 | 120 |
| 2'F-ANA at 1 4 5 6 7 8 9 10 11 14 | 45.4 |
| 2'F-ANA at 4 5 6 9 10 11 13 14 15 | 47.7 |
| 2'F-ANA at 1 4 6 7 9 11 12 15 | 157 |
| 2'F-ANA at 1 4 5 6 9 10 14 15 | 49.4 |
| 2'F-ANA at 1 2 3 4 7 8 9 11 12 13 | 239 |
| 2'F-ANA at 1 4 5 7 8 9 10 | 54 |
| 2'F-ANA at 1 2 3 4 9 10 11 12 14 | 50.3 |
| 2'F-ANA at 2 5 7 8 9 11 14 15 | 114 |
| 2'F-ANA at 1 2 6 10 11 | 90 |
| 2'F-ANA at 1 9 11 12 13 14 15 | 64.6 |
| 2'F-ANA at 4 7 8 9 11 13 | 221 |
| 2'F-ANA at 5 7 11 12 13 14 | 46.6 |
| 2'F-ANA at 1 9 12 13 | 295 |
| 2'F-ANA at 1 2 4 5 6 14 | 47.1 |
| 2'F-ANA at 1 5 7 10 14 | 159 |
| 2'F-ANA at 1 2 5 6 8 10 11 15 | 54 |
| 2'F-ANA at 1 3 4 11 13 14 | 69.1 |
| 2'F-ANA at 1 9 13 14 15 | 61.5 |
| 2'F-ANA at 3 5 8 9 12 15 | 275 |

Repeated from above (set 3):
| Sequence | E-score |
| --- | --- |
| AGAGGGGC | -0.24 |
| ATTGAAGG | -0.123 |
| TATTCCAA | -0.272 |
| AGCCTCAG | 0.00307 |
| GTTAGCCA | -0.00835 |
| ACCCGTAT | 0.31 |
| GCGGAGCC | 0.284 |
| AGAAGGAC | -0.231 |
| CGAAGCTA | -0.121 |
| GATAATTA | -0.072 |
| GGAGACAA | -0.141 |
| CCCCGGGA | 0.309 |
